Measured values from different studies.
Parts stem from different laboratories: compare values within a part only. Positions count from the first letter of the parent shown.

Set 1
Target: UDP-N-acetylglucosamine--peptide N-acetylglucosaminyltransferase 110 kDa subunit (OGT, Homo sapiens, UniProt O15294)
UniProt O15294, sequence (whole entry, looked up): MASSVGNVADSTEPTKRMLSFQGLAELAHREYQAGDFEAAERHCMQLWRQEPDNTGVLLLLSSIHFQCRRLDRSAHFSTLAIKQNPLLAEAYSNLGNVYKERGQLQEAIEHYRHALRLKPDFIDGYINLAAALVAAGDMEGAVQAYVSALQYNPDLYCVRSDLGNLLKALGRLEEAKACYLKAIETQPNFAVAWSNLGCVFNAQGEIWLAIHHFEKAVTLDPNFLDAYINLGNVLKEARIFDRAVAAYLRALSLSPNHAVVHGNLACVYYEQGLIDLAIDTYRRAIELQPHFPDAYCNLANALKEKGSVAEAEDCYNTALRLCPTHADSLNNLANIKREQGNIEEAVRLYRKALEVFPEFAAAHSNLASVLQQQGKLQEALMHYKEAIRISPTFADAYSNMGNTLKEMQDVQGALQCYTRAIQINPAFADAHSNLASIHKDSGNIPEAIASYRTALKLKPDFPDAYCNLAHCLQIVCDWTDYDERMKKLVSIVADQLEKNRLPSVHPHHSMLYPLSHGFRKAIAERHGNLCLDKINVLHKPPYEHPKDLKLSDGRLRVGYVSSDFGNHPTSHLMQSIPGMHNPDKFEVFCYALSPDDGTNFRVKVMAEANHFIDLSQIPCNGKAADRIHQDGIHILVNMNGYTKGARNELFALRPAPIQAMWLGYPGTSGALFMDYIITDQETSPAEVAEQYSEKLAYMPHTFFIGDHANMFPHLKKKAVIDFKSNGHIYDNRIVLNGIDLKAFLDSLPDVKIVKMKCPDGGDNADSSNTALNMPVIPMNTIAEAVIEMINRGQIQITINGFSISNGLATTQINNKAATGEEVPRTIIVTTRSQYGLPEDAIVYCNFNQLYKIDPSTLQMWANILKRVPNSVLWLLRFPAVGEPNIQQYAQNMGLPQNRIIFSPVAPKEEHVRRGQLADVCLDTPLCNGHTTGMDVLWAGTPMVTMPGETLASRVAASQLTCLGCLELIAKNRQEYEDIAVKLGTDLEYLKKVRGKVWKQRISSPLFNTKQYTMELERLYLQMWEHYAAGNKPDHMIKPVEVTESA
Effect on: binding
Technique: phage display NGS
Molecule type: peptide
Tested at: concentration not given
Setting: normalized abundance
Relative to: input library
`NFLPQYQITAGAYET` — result for “enrichment fold change”: 13.1.
For `QAHRWPFHFKQHSFW`, “enrichment fold change” read 11.7.
`RVNHHWGFNTHTYTA` — result for “enrichment fold change”: 4.86.
`SDDLYAPQYQIFFNA` — result for “enrichment fold change”: 8.33.
`VANMHHHVDHTAHGS` — result for “enrichment fold change”: 10.4.

Set 2
Target: RNA binding protein fox-1 homolog 2, RRM domain, GST-SBP tag (RBFOX2, Homo sapiens, UniProt O43251-10, residues 100-194)
Technique: RNA Bind-n-Seq
Molecule type: RNA
Medium: in vitro
Tested at: 365 nM
Setting: natural RNA segment, single round, ends assumed
Relative to: no-protein control
Reading: higher = stronger binding
Target sequence (chain): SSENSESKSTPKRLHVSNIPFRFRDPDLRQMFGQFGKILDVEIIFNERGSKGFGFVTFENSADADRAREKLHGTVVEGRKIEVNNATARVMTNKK
`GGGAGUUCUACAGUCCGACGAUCGGAAGGGCAGGAAGGAGAGCCUGCUGCAUGGGGUGGGGUAGGGCUGACUAGAAGGGCCAGUCCUGCCUGGCCAGGCAGAUCUGUGCCCCAUGCCUGUCCAGCCUGGGCAGUGGAAUUCUCGGGUGCCAA` — result for “RBNS enrichment (R)”: 0.715.
For `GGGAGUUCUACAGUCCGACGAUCGCUAUGAGGGCUCGGGGCUUGCAGGCUCUGAGGGCAUGUCGCAGGCGAGCUGGAAGGAAGCGCUCUCACUUUUUUUCAGGCAAUGUUGCUAGCCCUUCUAGCACACUGAGUGGAAUUCUCGGGUGCCAA`, “RBNS enrichment (R)” read 7.6.
Under “RBNS enrichment (R)”, `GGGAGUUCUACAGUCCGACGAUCUAAAAAAAUGUUUAAAGAUGUCUUCAAGGAAGACUAGAGUCUUUAAAUCACUUAUAGCUAUAUUUUACUACAAAAAUUCUGUAUAAAGAUAUAUUUAAAUAUUUUAGAGAUGGAAUUCUCGGGUGCCAA` is recorded as 0.932.
`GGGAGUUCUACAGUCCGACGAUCGCCUGGAGCCUUGCUCUCUGGGCACAGAGGGGUCCACUCUCCUGCCUGCUGGGACCUAUGGAAGGGGCUUCCUGGCCAAGGCCCCCUCUUCCAGAGGAGGAGCAGGGAUCUGGAAUUCUCGGGUGCCAA` — result for “RBNS enrichment (R)”: 0.321.
`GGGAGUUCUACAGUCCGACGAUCGAAGUGGAACUGUGUUCCUGCCAGCCUCUGUAAUGACUGAAGAAAUACAGGGUUUUGAAAACAUGAAGGAAAUGAGAGUUUCCCCCCAUUCCUGAUUUAGCUAUUAUUUCUGGAAUUCUCGGGUGCCAA` — result for “RBNS enrichment (R)”: 0.523.
For `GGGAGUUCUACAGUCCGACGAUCCUGUGGGUCUCUGGAUCCUGACCAGUUUGGACUCUGAGUUUUGGGGACCAGGACACUGCGAGGACAGGGACCUGACUCAAAAGACACAGCUAUGCUUCCAAUUUUGCACAUGGAAUUCUCGGGUGCCAA`, “RBNS enrichment (R)” read 0.662.
For `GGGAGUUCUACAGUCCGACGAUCUUUGAUGCCUUUUAAAUACCUUGAUGCCUAUAGCAUUAGAAAUGCUUUCCUAUUUAAAACAGGUUAGAUUUUAAAAUAGAGCUUUGUAUUGUGUAAUGGUUUUAUAUAUUUGGAAUUCUCGGGUGCCAA`, “RBNS enrichment (R)” read 2.04.
For `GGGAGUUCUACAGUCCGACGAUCGUGGUGAUUCCUGAGACUGGCAACAUGCCACAGAGUUGAAAUAAUACUCAGAACUCAGGAGCCUUGCCCAGCCGCUCAGUCACCUGCCUGCUGUGCUUCCGGGCAGUGCCUGGAAUUCUCGGGUGCCAA`, “RBNS enrichment (R)” read 0.301.

Set 3
Target: Centromere-binding protein 1, full length, His-tagged (CBF1, Saccharomyces cerevisiae, UniProt P17106, residues 1-351)
UniProt P17106, sequence (whole entry, looked up): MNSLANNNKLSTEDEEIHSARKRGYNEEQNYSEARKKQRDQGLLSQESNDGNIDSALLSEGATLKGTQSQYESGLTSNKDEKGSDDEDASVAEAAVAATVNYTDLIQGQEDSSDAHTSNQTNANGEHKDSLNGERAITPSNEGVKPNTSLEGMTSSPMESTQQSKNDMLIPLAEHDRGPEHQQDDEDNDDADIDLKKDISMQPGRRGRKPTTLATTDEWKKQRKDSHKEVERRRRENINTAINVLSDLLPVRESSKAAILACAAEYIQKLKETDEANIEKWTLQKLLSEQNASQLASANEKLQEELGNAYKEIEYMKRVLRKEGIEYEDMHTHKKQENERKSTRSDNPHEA
Technique: competition protein-binding microarray
Molecule type: double-stranded DNA, one strand shown
Medium: in vitro
Tested at: 2 µM
Setting: whole 60-bp probe, lowest competitor level
Added: Pho4 competitor, 0.05 µM
Reading: higher = stronger binding
With `TTATTCCGCCGATTCCACGGGTGCGGTGCTACCAAGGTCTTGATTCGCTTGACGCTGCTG` the fluorescence intensity was 54 a.u.
For `CAACTGATATATATACACGTGAAGCAAAAAAGGCATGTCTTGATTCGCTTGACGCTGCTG`, the fluorescence intensity was 1860 a.u.
For `AGCAAAGGAGACTTAAACGTGAGAGAGACCTGGCCTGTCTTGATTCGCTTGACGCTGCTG`, the fluorescence intensity was 75.4 a.u.
`CTAACGAAGGTTTGAAAAGTGGGTGACAAGCCAAGTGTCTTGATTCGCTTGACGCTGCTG` gave a fluorescence intensity of 72.7 a.u.
The fluorescence intensity of `CAGCATTAGCTAAAACACGTTAATATGGTGGAGTCAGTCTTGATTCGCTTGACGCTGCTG` is reported as 79.8 a.u.
For `TGCGCAACAACTTGCAACGTGGGTGTATGTCTAGAAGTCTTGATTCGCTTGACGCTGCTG`, the fluorescence intensity was 83.2 a.u.
The fluorescence intensity of `AGTGTCCAACTTATTAAGGTGCGGGCGCCTGGCTTGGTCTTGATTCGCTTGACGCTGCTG` is reported as 49.1 a.u.
`CTAGATGTCAAAAGGCTTGTGACAGTATGTGGAGAAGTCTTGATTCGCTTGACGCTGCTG` gave a fluorescence intensity of 69.2 a.u.

Set 4
Target: CCND1, cyclin fold, Cln2 fusion (human)
Technique: yeast growth competition, sequencing
Medium: yeast
Setting: strong parent motif
Relative to: not given
Reading: higher = stronger binding
Starting sequence: viral docking peptide; YKVKRRLVFGADD
`YKVKRRLWFGADD [V8W]` — result for “normalised enrichment score”: 1.04.
`YKVKRRLVFGARD [D12R]`: “normalised enrichment score” 0.186.
`YKVKRRDVFGADD [L7D]`: “normalised enrichment score” -0.118.

For quick reference, copied from above (set 2):
`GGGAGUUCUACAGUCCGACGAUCGGAAGGGCAGGAAGGAGAGCCUGCUGCAUGGGGUGGGGUAGGGCUGACUAGAAGGGCCAGUCCUGCCUGGCCAGGCAGAUCUGUGCCCCAUGCCUGUCCAGCCUGGGCAGUGGAAUUCUCGGGUGCCAA` — result for “RBNS enrichment (R)”: 0.715.
Under “RBNS enrichment (R)”, `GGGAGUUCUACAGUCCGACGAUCUAAAAAAAUGUUUAAAGAUGUCUUCAAGGAAGACUAGAGUCUUUAAAUCACUUAUAGCUAUAUUUUACUACAAAAAUUCUGUAUAAAGAUAUAUUUAAAUAUUUUAGAGAUGGAAUUCUCGGGUGCCAA` is recorded as 0.932.
